Experimental data from different studies.
Every numbered part comes from another study and shows a few of its results, in no order. Several values in a cell are separate wells, animals, samples, runs or records.

Study 1 — cell line: mouse MPNST tumor cells; method: high-content nuclear imaging; item: cell number; tested at: 10 µM; time: 12 h; setting: mean of 2 replicates; baseline: plate mean; direction: higher = more cells; endpoint: nuclei count
CCCCCNC(=N)N/N=C/c1c[nH]c2ccc(OC)cc12: -4.45 z-score
Cc1ccc(-c2cc(C(=O)Nc3cccnc3)c3cc(Br)ccc3n2)cc1: 0.203 z-score
O=C(CCCc1ccc(-c2ccccc2F)cc1)Nc1ccc(O)cc1: -4.26 z-score
NC1CCN(c2c(F)cc3c(=O)c(C(=O)O)cn(C4CC4)c3c2Cl)C1 (stereo not drawn): 1.36 z-score
Cc1ccc(C(C)C)cc2c(C)ccc1-2: -1.19 z-score
N#CC(CCCN1CCN(/N=C/c2cccnc2)CC1)(c1ccccc1)c1ccccc1: -0.978 z-score

Study 2 — observed: enzyme activity; action: inhibitor; tested at: 0.5 µM; baseline: control; endpoint: remaining activity
Target: Protein kinase C gamma type (PRKCG, Homo sapiens, UniProt P05129)
Cn1cnc2cc3c(Nc4cccc(Br)c4)ncnc3cc21: 93.9%
Cc1nc(Nc2ncc(C(=O)Nc3c(C)cccc3Cl)s2)cc(N2CCN(CCO)CC2)n1: 86.2%
COc1ccc(-c2cnc3c(-c4ccsc4)cnn3c2)cc1: 112%
CC(C)c1nn(-c2c(Cl)cccc2Cl)c2nc(Cc3ccc(OCCO)cc3)[nH]c(=O)c12: 81.1%
Nc1[nH]nc2nnc(-c3c(-c4ccccc4)nn4ccccc34)cc12: 103%
CCOc1cc2ncnc(Nc3cccc(Br)c3)c2cc1OCC: 83%
CS(=O)(=O)CCNCc1ccc(-c2ccc3ncnc(Nc4ccc(OCc5cccc(F)c5)c(Cl)c4)c3c2)o1: 79.3%

Study 3 — method: KINOMEscan; tested at: 10 µM; baseline: DMSO control; direction: lower = stronger binding; endpoint: binding
SMILES: COc1cc(C(=O)N2CCC(N3CCN(C)CC3)CC2)ccc1Nc1ncc2c(n1)N(C)c1ccccc1C(=O)N2C
CAMK4: 79%
MAPKAPK2: 100%
CLK4: 54%
FER: 51%

Single results of other studies
Cn1cncc1[C@@](O)(COc1ccc(C#N)cc1-c1ccc(OC(F)(F)F)cc1)c1ccc(C#N)cc1 — GR value (HEK293T; high-content imaging; 10 µM, 12 h, 1 normal, negative death, unit not given; baseline: untreated growth): -0.704 and -0.0138

Some of these lines once more (study 1):
O=C(CCCc1ccc(-c2ccccc2F)cc1)Nc1ccc(O)cc1: -4.26 z-score
Cc1ccc(-c2cc(C(=O)Nc3cccnc3)c3cc(Br)ccc3n2)cc1: 0.203 z-score
